Experimental data of several laboratories.
Lines come from different studies, so protocols differ. ± marks the error that the study gave.
APP: Amyloid-beta precursor protein (APP, Homo sapiens, UniProt P05067)
APP Aβ40 fibrils: Amyloid-beta precursor protein, Aβ40 fibrils (APP, Homo sapiens, UniProt P05067)
APP amyloid-beta aggregates: Amyloid-beta precursor protein, amyloid-beta aggregates (APP, Homo sapiens, UniProt P05067)

Compound	target	test	test system	setting	quantity	value
COc1cc2c(c(O)c1O)C(=O)CC(c1ccccc1)O2 (centres unmarked)	APP	–	–	–	IC50	14000 ± 1200 nM
COc1cc(O)cc2cc3oc(C)cc(=O)c3c(O)c12	APP	amyloid aggregation, inhibitor, fluorescence	–	–	IC50	2800 nM
COc1cc(-c2nc3ccccc3s2)cc(CN2CCN(C)CCN(C)CC2)c1O	APP Aβ40 fibrils	amyloid-β fibril binding, ThT fluorescence competition	–	Aβ 2 µM, with: ThT 1 µM	Ki	170 ± 50 nM
COc1cc(C=CC(=O)CC(=O)C=Cc2ccc(OCC(=O)O)c(OC)c2)ccc1O	APP amyloid-beta aggregates	binding, thioflavin T competition	–	–	IC50	310 nM
COc1cc(-c2nc3ccccc3s2)cc(CN(Cc2ccccn2)Cc2ccccn2)c1O	APP Aβ40 fibrils	binding, ThT competition	Aβ fibrils	Aβ 5 µM, with: ThT 2 µM	Ki	180 ± 25 nM
COCCOCCOCCOC(=O)C(C#N)=Cc1ccc(N(C)C)cc1	APP amyloid-beta aggregates	IgG-amyloid beta binding, inhibitor, ELISA	–	50 % inhibition, with: aggregated amyloid beta	IC50	129000 nM
CN(C)c1ccc(-c2nc3ccc(OCCCN4CCN5CCN(CC4)CC(=O)[O][Al]([F])[O]C(=O)C5)cc3s2)cc1	Amyloid-beta precursor protein, fibril (APP, Homo sapiens, UniProt P05067)	ligand displacement, radioligand	–	–	Ki	25.2 nM
OC(Cc1cc(-c2ccc(C(O)C(F)(F)F)s2)sc1-c1ccc(-c2sc(-c3ccc(C(O)C(F)(F)F)s3)cc2CC(O)C(F)(F)F)s1)C(F)(F)F (centres unmarked)	Amyloid-beta precursor protein, Aβ40/Aβ42 aggregates (APP, Homo sapiens, UniProt P05067)	Aβ40 Aβ42 fibril binding, fluorescence	–	24 h aggregation, Aβ40:Aβ42 9:1	Kd	750 nM
COCCOCCOCCOC(=O)C(C#N)=Cc1ccc(C=Cc2ccc(N(C)C)cc2)cc1	APP amyloid-beta aggregates	IgG-amyloid beta binding, inhibitor, ELISA	–	50 % inhibition, with: aggregated amyloid beta	IC50	33600 nM
COCCOCCn1c2ccc(F)cc2c2cc(/C=C/c3cc[n+](CCO)c4ccccc34)ccc21	APP	amyloid aggregation, inhibitor, fluorescence	–	–	IC50	3400 nM
CCN(CC)c1ccc(C=C(C#N)C(=O)OCCOCCOCCOC)cc1	APP amyloid-beta aggregates	IgG-amyloid beta binding, inhibitor, ELISA	–	50 % inhibition, with: aggregated amyloid beta	IC50	11400 nM
COCCOCCOCCOCCOC(=O)/C(C#N)=C/c1ccc2cc(N3CCCCC3)ccc2c1	Amyloid-beta precursor protein, Aβ42 aggregates (APP, Homo sapiens, UniProt P05067)	binding, fluorescence titration	–	5% DMSO in water, with: aggregated Abeta42 5 µM	Kd	1600 ± 900 nM
COc1ccc(-c2cc(=O)c3c(O)cc(O)c(-c4cc(-c5cc(=O)c6c(O)cc(O)cc6o5)ccc4O)c3o2)cc1	APP	amyloid aggregation, inhibitor, fluorescence	–	–	IC50	190 nM
CC(=O)Nc1ccc(-n2cnc(C(=O)NCc3cccs3)c2)nc1	Amyloid-beta precursor protein, amyloid-beta (APP, Homo sapiens, UniProt P05067)	binding, competition binding	Alzheimer brain homogenate	with: [3H]PiB	Ki	> 1000 nM
